Experimental data gathered from unrelated publications.
Each numbered part is a random draw from the data of one study; scales do not carry over between parts. Changes are numbered by the printed parent chain.

Series 1 — method: protein-binding microarray; molecule type: double-stranded DNA, one strand shown; sample: in vitro; concentration: 0.8 µM; setting: whole 60-bp probe, no competitor; direction: higher = stronger binding; all sequences stand within: … GTCTTGATTCGCTTGACGCTGCTG
Target: Centromere-binding protein 1, full length, N-terminal tag (CBF1, Saccharomyces cerevisiae, UniProt P17106, residues 1-351)
Chain of UniProt P17106 (whole entry, looked up): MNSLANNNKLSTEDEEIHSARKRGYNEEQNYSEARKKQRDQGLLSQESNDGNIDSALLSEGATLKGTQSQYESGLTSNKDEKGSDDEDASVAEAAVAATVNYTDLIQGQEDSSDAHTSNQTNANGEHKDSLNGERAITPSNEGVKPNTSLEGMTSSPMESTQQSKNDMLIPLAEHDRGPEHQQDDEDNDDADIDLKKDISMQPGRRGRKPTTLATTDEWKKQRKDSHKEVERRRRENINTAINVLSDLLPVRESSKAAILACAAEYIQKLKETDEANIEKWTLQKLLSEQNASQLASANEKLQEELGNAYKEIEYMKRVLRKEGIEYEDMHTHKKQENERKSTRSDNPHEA
| Sequence | fluorescence intensity [a.u.] |
| --- | --- |
| CTAGCACTGTTCAATTACATGACGTATCTTACGTTC | 495 |
| TGTACGAAGCTATATCACGCGACTATAGTAGTTAGG | 1930 |
| GAATAAGACAACAGGTGATTAACCTCCAGATGGTAG | 1500 |
| CTACTCGAAGAAAAACACATGACCAGAATGATATTC | 2540 |
| CTAATAACGCCACAGAACGTGATCTGACTATTGTTC | 2230 |
| GAATTCATATAAGATCACGTTGTTTATATGAATTAG | 4400 |
| GAAAAATGGCAACAGTACATCAGAAGAATATGTTAG | 514 |
| CTACTATCGCTGTTATACATGATGTCCCCAAAGTTC | 540 |
| CCTAACTACTATATCTCCGTGCAATAGCTTCGTACA | 508 |
| CCTAACTACTATAGCTACGTGCGATAGCTTCGTACA | 550 |
| GAAGCCGTACTTTTACACGTGACCGTAGAGGCTTAG | 17800 |
| GAATTCAATAAATGTCACGAAAGGATTGTAGAATAG | 625 |
| GAACATAGATAGATAAACGTGCAATGAAATTCGTAG | 735 |
| CTACGAACCCTAGGTGACCGCATTAGACAGAGATTC | 496 |
| CTATGAAACAATCGGCATGTGGTTTATACCTCTTTC | 593 |
| CTACCAACATATAAGCGGGTGATGTCTCATTTCTTC | 527 |
| CTATTCAGCAAACGTGATTTGCAAAACAACGGTTTC | 2240 |
| GAATTTAGCAACCCACACCATATACCTTTGGTGTAG | 506 |
| GAATGGTTTACAAATCACCAGTGCAAAAACAGATAG | 574 |
| CTAGTTAGAGGCTATAGCATCAGATATACAAAATTC | 519 |
| CTAAGCCAAACTCCCCACCTGACAATGTCTTCATTC | 658 |
| GAAGATAGTTTTTTTATCGTGATGAAGTGTTGGTAG | 574 |
| CTAACGCATGGAAAACACGTGACCTGAAAGTCATTC | 21400 |
| CTATCCTCGATACGGCATGCGTATAAAGAGATATTC | 495 |
| GAATTTTGTGATTGTCACGATCTCAACAAAACATAG | 852 |

Series 2 — method: protein-binding microarray; molecule type: double-stranded DNA, one strand shown; sample: in vitro; concentration: 940 nM top; setting: 60-bp whole probe; together with: salmon DNA 0.4 mg/ml; baseline: random background probes; direction: higher = stronger binding; all sequences stand within: GCCTAGCAC … GTCTTGATTCGCTTGACGCTGCTG
Target: Interferon regulatory factor 5, full length, phosphomimetic (IRF5, Homo sapiens, UniProt Q13568-2, residues 1-514, S451D/S453D/S456D/S462D)
| Sequence | fitted relative affinity [z-score] |
| --- | --- |
| TTAGGACTGGGTATCGGTCAGTGCTAG | 3.16 |
| TTAGGTCTCCTACTGCTTTGGTGCTAG | 0.00411 |
| GACGGTATCCTTCTCCTGGCGTGCTAG | 0.852 |
| TTTGAACTGAGTCTCGATTAGTGCTAG | 2.91 |
| TCAGATTTCAGTTTTCTACTGTGCTAG | 0.638 |
| TCAATCTTCATTGTCATACTGTGCTAG | 0.342 |
| TTTTTTTTTTTTTGGAATGTGTGCTAG | 0.753 |
| GGGCCTTGCATGTTTTTGACAGTGCTA | -0.248 |
| TCATTTATGGTATTTTTACTGTGCTAG | 0.192 |
| GACTGACTGGACACTGGGGACGTGCTA | -0.397 |
| TTCGGTTTCGGTTTCGGTTAGTGCTAG | 17 |
| GACGATCCCAGTCTCGAGACGTGCTAG | 1.22 |
| GACGGTATCCTACTGCTTACGTGCTAG | -0.0278 |
| GACGATTTCGGGTAACGAGACGTGCTA | 0.548 |
| TTAGATTTCAGAGTGGATTAGTGCTAG | -0.0869 |
| TTAGATTTCGGGGATCGATTAGTGCTA | 1.18 |
| ATAGGTCTCGGTCTCGGTTAGTGCTAG | 5.03 |
| TAGGGACTCAGGTCTCCCTTGGTGCTA | -0.384 |
| GACGGTATCGGGTATCGGTACGTGCTA | 6.36 |
| GACGGTTTCCGTATCCTGACGTGCTAG | 2 |
| TCACATTGCCTGTTTTTCACTGTGCTA | 1.21 |
| TTAGGACTGGACTTTCTGTTAGTGCTA | 0.603 |
| TCAGTTTCGTATCTTCATACTGTGCTA | 8.94 |
| TTAGATATCGCGTTTCGATTAGTGCTA | 1.7 |
| TTAGACATCAGTATCGATTAGTGCTAG | 4.55 |

Series 3 — method: universal PBM; molecule type: double-stranded DNA, one strand shown; sample: in vitro; concentration: not given; direction: higher = stronger binding
Target: Sal-like protein 4, full length isoform B (SALL4, Homo sapiens, UniProt Q9UJQ4-2, residues 1-616)
Setting: 8-mer, flanks averaged, mean of replicates
Construct (chain): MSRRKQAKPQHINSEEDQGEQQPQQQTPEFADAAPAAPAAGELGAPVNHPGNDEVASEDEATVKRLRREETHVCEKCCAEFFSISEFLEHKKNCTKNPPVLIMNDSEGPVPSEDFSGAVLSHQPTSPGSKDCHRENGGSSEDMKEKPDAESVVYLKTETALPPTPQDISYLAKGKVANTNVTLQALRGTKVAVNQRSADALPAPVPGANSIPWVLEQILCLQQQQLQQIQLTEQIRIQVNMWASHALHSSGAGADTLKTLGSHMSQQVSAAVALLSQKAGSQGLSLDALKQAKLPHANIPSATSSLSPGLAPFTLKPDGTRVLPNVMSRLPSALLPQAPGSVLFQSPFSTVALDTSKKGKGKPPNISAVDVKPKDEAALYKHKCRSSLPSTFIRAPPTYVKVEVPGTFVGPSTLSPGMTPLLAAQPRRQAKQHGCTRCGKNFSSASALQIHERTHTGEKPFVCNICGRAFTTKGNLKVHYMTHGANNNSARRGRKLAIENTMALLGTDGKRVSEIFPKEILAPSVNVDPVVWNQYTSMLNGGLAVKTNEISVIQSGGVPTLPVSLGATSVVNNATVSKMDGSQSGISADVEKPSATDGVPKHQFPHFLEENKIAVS
| Sequence | E-score |
| --- | --- |
| ATCAGACC | 0.0124 |
| ATCTTTGC | 0.142 |
| ACGCGAAT | 0.00274 |
| GCTACTAC | 0.166 |
| CAGATCAA | -0.121 |
| TCGCAGAA | 0.0194 |
| AAGTACGA | 0.228 |
| AAACTAAT | 0.299 |
| CGGGGCAC | -0.228 |
| CTAAATAA | 0.286 |
| TTCTACAA | 0.173 |
| ATGGTTTG | -0.0638 |
| AATGTGGC | -0.0527 |
| CTCACTAC | 0.0521 |
| ATCGCTGG | -0.157 |
| AAACTTAT | 0.368 |
| AGGCTCTC | -0.192 |
| AATGATAA | 0.345 |
| CCCTACGG | -0.149 |
| CGTGATGC | -0.129 |
| AATGAGAG | 0.132 |
| ATGACAAG | 0.0646 |
| ACCTCTAA | -0.0513 |
| ATTTTCCG | 0.344 |
| CGATTCAA | 0.00257 |

Series 4 — method: protein binding microarray; molecule type: double-stranded DNA, one strand shown; sample: in vitro; concentration: not given; baseline: not given; direction: higher = stronger binding
Target: Histone acetyltransferase KAT6A, winged helix 2, GST fusion (KAT6A, Homo sapiens, UniProt Q92794, residues 85-181)
Setting: 8-mer, flanks averaged, mean of 2 arrays, mostly near background
Residues (chain): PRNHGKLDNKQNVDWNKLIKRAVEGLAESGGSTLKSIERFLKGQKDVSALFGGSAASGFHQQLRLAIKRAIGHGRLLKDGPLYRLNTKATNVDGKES
| Sequence | E-score |
| --- | --- |
| ACGTTTGG | -0.233 |
| AACATATA | -0.0469 |
| ACGATGAT | -0.164 |
| AGTCCTCA | -0.116 |
| CAATAGGG | -0.014 |
| ACGCACAA | 0.0911 |
| CAGCTGCG | 0.133 |
| TACGTTAA | -0.127 |
| CTGCTTCC | 0.0954 |
| TATGGTGA | -0.16 |
| CCCAGACC | 0.0192 |
| CGGCGATA | 0.1 |
| GTCTTAAC | -0.132 |
| GAGGAGAA | -0.102 |
| AGGCCTCC | 0.0213 |
| CCGCTCTC | 0.0225 |
| AAGGCATA | 0.0476 |
| CATGCCAG | -0.0198 |
| CTTATGTA | 0.0359 |
| ACGCCATG | 0.0168 |
| GAGAGCCC | -0.0877 |

Series 5 — target: CCNA2, cyclin fold, Cln2 fusion (human); method: yeast growth competition, sequencing; sample: yeast; setting: strong parent motif; baseline: not given; direction: higher = stronger binding
Parent: E2F3 docking peptide (human); PPAKRRLELGESG
| Substitution | normalised enrichment score |
| --- | --- |
| R5K L9F | 6.59 |
| S12A | 5.22 |
| R5K | 3.56 |
| R5A | 0.368 |
| R5A L7A | 0.108 |
| E8A | 3.91 |
| P1A | 4.13 |
| G13A | 4.66 |
| L9A | 0.713 |

Series 6 — method: RNA Bind-n-Seq; molecule type: RNA; sample: in vitro; concentration: 1 µM; setting: whole 134-nt RNA, ends assumed; together with: 150 mM KCl; baseline: input library; direction: higher = stronger binding
Target: Ras GTPase-activating protein-binding protein 1, C-terminal RGG region (G3BP1, Homo sapiens, UniProt Q13283)
Chain of UniProt Q13283 (whole entry, looked up): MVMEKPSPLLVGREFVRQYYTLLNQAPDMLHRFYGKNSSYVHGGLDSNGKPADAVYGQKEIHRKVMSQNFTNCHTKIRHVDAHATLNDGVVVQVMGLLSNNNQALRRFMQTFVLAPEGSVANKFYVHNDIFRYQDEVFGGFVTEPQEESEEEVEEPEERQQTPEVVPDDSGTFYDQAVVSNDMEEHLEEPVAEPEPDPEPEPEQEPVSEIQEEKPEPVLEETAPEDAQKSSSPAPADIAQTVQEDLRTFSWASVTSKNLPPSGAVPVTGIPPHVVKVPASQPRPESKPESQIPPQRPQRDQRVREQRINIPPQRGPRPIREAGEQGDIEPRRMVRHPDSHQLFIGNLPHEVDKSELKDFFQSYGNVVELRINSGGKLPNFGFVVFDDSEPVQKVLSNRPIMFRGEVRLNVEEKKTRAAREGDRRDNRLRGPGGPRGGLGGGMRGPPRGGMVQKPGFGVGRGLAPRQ
All sequences stand within: GGGAGUUCUACAGUCCGACGAUC … UGGAAUUCUCGGGUGUCAAGG
| Sequence | log2 enrichment |
| --- | --- |
| CUGUGCUACACAUCGUAUGUACCGAAUCGGGGAAAAAAGGGGAAAAAAGGGGAAAAAAGGGAAAGUAUUAUGUUACGCCGUUCGGAUCUG | -0.755 |
| GUAGAAAUUCAUGUAUAAAUGGAACCAUAUAGUACAUACAUAUCAUACUCUUAGGUCUGGCAAAUAUUUGAGGUUCAUCCAUAUUUUAUA | -1.86 |
| ACCAUGCAGGUGGGCAUCUUUGGGAAGUGGGGCAAGGGGGGGAUUGGGAGGGGGGUAACACUUUGGGAACAGGUGGUCCCAGGUCGUUUC | 2.27 |
| UCCUCAAGUCCUGUGCUACACAUCGUAUGUACCGAAUCGGAAAGGUGGUGGAAAGUAUUAUGUUACGCCGUUCGGAUCUGCACUUCCAGC | -1.01 |
| UGGGAGGUGGAUUUUGUUUAUUUUUUUAGCUCAUUUCCAGUGGUGGGAAUUUUUUUUUAAUAUGUGUCAUGAAUAAAGUUGUUUUUGAAA | 2.52 |
| UCAAGUCCUGUGCUACACAUCGUAUGUACCGAAUCGGAAAGGGGAAAGGAAAGGGAAAGUAUUAUGUUACGCCGUUCGGAUCUGCACUUC | -1.8 |
| GCAGGAAGUAAAAACAAAUGGAAAUGCUUCGGAUAGUGGCAAAAGUGGGGGUUGCUAAGGAAAGGGUGGGAUGGGAGUGGGUAAAGAGUU | 1.82 |
| AGUCCUGUGCUACACAUCGUAUGUACCGAAUCGGGGAGGGGAAAAAGGGGUUUGGGGAAAGUAUUAUGUUACGCCGUUCGGAUCUGCACU | 1.93 |
| AAGUCCUGUGCUACACAUCGUAUGUACCGAAUCAAAUUUAAACCCAAACCCCCAAAAAAGUAUUAUGUUACGCCGUUCGGAUCUGCACUU | -1.03 |
| ACCAUGCAGGUGGGCAUCUUUGGGAAGUGGGGCAAGGGGGGGAUAGGGAGGGGGGUAACACUUUGGGAUCAGGUGGUCCCAGGUCGUUUC | 1.84 |
| ACCAUGCAGGUGGGCAUCUUUCGGAAGUGGGGCAAGGGGGGGAUAGGGAGGGGGGUAACACUUUGGGAACAGGUGGUCCCAGGUCGUUUC | -1.26 |
| CUCAAGUCCUGUGCUACACAUCGUAUGUACCGAAUCGGUUGGUUGGGGUUGGGGAAAGUAUUAUGUUACGCCGUUCGGAUCUGCACUUCC | -0.449 |
| UGAUGGGACAACACCCGAAAGGAUAGCACAAAUAACAGGACCUCCAGACCGAUGUCAACAUGCUGCAGAAAUUAUUACAGACCUUCUUCG | -0.372 |
| AAGUCCUGUGCUACACAUCGUAUGUACCGAAUCGGGAAAAGGGAAAAGGGAAAAGGGAAAGUAUUAUGUUACGCCGUUCGGAUCUGCACU | 0.652 |

Repeated from above (series 2):
| Sequence | fitted relative affinity [z-score] |
| --- | --- |
| TTTTTTTTTTTTTGGAATGTGTGCTAG | 0.753 |
| GACGATTTCGGGTAACGAGACGTGCTA | 0.548 |
| TAGGGACTCAGGTCTCCCTTGGTGCTA | -0.384 |
| ATAGGTCTCGGTCTCGGTTAGTGCTAG | 5.03 |
| TTAGATATCGCGTTTCGATTAGTGCTA | 1.7 |
| TTCGGTTTCGGTTTCGGTTAGTGCTAG | 17 |
| TTAGGACTGGACTTTCTGTTAGTGCTA | 0.603 |
| TTAGGTCTCCTACTGCTTTGGTGCTAG | 0.00411 |
| TCAATCTTCATTGTCATACTGTGCTAG | 0.342 |
| TCACATTGCCTGTTTTTCACTGTGCTA | 1.21 |
